# Results of several laboratories.
# Protocols differ between the studies behind these lines.
# CTSL: Procathepsin L (CTSL, Homo sapiens, UniProt P07711)
# Sequence of UniProt P07711 (whole entry, looked up): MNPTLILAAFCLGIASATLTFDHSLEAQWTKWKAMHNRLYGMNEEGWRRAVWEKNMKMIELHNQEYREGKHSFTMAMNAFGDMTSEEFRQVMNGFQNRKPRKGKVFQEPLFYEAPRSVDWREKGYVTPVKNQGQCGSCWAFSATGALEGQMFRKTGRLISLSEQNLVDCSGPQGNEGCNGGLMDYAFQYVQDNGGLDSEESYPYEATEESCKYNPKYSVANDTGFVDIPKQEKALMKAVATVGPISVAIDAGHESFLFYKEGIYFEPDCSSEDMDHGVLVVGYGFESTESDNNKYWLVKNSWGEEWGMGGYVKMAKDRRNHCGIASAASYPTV
# CDK5 with p35: Cyclin-dependent kinase 5, with p35 (CDK5, Homo sapiens, UniProt Q00535)
# Sequence of UniProt Q00535 (whole entry, looked up): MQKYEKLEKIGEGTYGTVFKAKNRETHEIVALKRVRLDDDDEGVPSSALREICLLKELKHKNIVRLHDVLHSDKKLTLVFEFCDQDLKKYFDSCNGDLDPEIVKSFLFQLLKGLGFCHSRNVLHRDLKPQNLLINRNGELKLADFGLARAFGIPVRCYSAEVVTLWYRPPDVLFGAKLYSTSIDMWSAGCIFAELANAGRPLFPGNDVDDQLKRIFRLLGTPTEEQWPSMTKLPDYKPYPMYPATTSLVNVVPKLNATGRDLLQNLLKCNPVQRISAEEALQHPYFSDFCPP
# Sequence of UniProt P22607 (whole entry, looked up): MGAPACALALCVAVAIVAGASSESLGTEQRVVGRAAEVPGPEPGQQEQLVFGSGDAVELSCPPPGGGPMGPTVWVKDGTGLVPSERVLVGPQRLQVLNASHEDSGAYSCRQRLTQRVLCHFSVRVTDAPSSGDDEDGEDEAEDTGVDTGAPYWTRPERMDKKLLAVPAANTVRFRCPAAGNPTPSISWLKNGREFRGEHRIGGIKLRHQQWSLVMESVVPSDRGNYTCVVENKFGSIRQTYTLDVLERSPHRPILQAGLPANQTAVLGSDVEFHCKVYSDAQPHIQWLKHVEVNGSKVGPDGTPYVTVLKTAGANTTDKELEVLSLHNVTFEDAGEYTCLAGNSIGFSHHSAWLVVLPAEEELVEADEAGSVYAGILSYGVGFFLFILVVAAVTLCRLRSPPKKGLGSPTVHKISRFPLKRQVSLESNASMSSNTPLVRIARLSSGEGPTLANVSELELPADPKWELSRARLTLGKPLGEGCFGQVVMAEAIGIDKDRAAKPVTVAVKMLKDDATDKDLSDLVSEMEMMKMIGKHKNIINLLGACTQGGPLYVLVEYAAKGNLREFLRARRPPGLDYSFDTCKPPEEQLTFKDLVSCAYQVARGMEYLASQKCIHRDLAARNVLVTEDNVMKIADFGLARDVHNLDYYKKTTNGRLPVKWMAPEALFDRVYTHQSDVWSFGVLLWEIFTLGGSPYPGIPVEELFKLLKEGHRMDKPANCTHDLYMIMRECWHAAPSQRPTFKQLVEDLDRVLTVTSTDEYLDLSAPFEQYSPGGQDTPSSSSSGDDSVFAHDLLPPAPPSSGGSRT
# Sequence of UniProt P05164 (whole entry, looked up): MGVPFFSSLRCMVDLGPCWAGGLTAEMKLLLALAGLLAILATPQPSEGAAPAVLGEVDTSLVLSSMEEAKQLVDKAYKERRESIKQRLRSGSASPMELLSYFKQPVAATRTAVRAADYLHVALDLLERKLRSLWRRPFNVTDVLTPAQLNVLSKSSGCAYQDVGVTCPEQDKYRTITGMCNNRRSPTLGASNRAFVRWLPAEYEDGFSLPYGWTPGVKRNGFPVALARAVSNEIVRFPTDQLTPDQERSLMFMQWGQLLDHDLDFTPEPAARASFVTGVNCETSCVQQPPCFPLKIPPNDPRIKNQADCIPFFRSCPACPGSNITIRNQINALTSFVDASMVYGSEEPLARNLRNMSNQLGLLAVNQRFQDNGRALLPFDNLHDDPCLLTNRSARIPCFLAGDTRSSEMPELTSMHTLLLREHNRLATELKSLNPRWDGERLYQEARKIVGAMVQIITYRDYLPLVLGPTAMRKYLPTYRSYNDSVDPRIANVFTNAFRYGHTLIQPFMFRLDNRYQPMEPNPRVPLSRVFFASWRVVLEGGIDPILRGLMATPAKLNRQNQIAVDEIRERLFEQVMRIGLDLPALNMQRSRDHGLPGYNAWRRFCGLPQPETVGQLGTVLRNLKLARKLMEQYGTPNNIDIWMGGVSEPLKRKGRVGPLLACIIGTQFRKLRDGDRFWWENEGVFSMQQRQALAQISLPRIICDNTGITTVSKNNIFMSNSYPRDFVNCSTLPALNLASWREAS
# Sequence of UniProt O43283 (whole entry, looked up): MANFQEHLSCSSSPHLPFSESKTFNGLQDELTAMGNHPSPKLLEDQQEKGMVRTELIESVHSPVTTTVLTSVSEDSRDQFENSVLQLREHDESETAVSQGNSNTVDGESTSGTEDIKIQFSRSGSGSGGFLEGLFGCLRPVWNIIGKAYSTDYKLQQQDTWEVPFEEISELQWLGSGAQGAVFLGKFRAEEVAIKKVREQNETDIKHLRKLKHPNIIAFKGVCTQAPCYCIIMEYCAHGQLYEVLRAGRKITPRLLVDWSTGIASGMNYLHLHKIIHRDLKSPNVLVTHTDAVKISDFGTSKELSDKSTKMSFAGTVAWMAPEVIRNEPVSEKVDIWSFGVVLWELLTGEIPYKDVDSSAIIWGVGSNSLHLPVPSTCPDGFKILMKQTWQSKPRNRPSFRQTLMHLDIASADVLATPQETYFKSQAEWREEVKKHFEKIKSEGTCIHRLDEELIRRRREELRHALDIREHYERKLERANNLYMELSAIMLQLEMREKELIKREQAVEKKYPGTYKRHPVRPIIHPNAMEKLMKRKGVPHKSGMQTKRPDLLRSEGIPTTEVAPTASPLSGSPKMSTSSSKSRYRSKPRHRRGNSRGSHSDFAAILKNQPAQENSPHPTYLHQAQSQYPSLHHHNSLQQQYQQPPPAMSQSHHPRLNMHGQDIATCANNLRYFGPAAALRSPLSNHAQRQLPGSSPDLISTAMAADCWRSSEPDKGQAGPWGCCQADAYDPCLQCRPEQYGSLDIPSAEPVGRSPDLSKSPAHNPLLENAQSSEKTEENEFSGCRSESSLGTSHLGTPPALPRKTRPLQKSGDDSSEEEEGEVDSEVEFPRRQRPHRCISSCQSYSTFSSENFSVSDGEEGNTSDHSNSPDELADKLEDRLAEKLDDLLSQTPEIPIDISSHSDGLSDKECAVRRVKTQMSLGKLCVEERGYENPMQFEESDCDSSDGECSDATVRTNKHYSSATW
# Sequence of UniProt Q9C098 (whole entry, looked up): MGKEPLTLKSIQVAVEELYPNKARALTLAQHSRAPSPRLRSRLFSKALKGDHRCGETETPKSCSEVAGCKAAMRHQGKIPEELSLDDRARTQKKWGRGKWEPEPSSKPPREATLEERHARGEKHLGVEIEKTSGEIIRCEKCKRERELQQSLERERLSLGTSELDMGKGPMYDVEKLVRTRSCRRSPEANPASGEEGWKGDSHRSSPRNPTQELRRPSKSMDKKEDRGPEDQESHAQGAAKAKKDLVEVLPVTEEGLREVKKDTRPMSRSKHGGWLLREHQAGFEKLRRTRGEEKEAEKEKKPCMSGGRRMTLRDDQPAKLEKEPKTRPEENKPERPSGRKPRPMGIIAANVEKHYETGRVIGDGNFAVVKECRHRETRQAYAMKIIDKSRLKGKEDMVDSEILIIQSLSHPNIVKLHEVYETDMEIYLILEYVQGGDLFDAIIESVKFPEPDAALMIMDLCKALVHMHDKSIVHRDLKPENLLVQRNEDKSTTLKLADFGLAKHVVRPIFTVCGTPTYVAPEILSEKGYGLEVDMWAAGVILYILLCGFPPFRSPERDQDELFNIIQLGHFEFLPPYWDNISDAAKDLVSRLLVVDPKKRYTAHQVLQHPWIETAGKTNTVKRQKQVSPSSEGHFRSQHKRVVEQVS
Compound,tested on,assay,conditions,measurement,value
O=c1oc2cc(O)ccc2c2ccc(O)cc12,CTSL,"enzyme activity, inhibitor",100 µM,remaining activity,65.8%
C=CC(=O)N1CCC(COCC(=O)N2CCN(c3nc(-c4cnc(N)nc4C(F)F)nc(N4CCOC[C@@H]4C)n3)CC2)CC1,"MST1R (Homo sapiens, UniProt Q04912)","binding, competition with immobilised ligand",1 µM,remaining binding,100%
CC[C@H](C)[C@H](NC(=O)[C@H](CCC(N)=O)NC(=O)[C@H](CC(C)C)NC(=O)[C@H](CCSC)NC(=O)[C@H](CCCCN)NC(=O)[C@H](CO)NC(=O)[C@H](CO)NC(=O)[C@H](CCSC)NC(=O)[C@H](CC(C)C)NC(=O)[C@H](CC(N)=O)NC(=O)[C@@H](NC(=O)[C@@H](NC(=O)[C@H](CO)NC(=O)[C@H](CC(C)C)NC(=O)[C@H](CS)NC(=O)[C@H](CCCNC(=N)N)NC(=O)[C@H](CC(=O)O)NC(=O)[C@H](Cc1c[nH]c2ccccc12)NC(=O)[C@H](Cc1ccccc1)NC(=O)[C@H](C)NC(=O)[C@H](CCC(=O)O)NC(=O)[C@@H](N)CCCCN)C(C)C)[C@@H](C)CC)C(=O)N[C@@H](CC(N)=O)C(=O)N[C@@H](C)C(=O)O,CDK5 with p35,"enzyme activity, inhibitor, radiometric","250 µM, 20 min",remaining activity,47%
C1=C/COCc2cc(ccc2OCCN2CCCC2)Nc2nccc(n2)-c2cccc(c2)COC/1,"FES (Homo sapiens, UniProt P07332)",binding,0.1 µM,remaining binding,100%
COc1cc(-c2cncc3c2CN(C)Cc2cc(N4CCNCC4)ccc2-3)cc(OC)c1OC,"DCLK3 (Homo sapiens, UniProt Q9C098)","enzyme activity, inhibitor",1 µM,remaining activity,121%
CC(C)OCCn1c(=S)[nH]c(=O)c2[nH]ccc21,"Myeloperoxidase (MPO, Homo sapiens, UniProt P05164)","enzyme activity, inhibitor",2.5 µM,remaining activity,17.9%
CC[C@H](C)[C@H](NC(=O)[C@H](CCC(N)=O)NC(=O)[C@@H](NC(=O)[C@H](CCSC)NC(=O)[C@H](CCCCN)NC(=O)[C@H](CO)NC(=O)[C@@H](NC(=O)[C@H](CCSC)NC(=O)[C@H](CC(C)C)NC(=O)[C@H](CC(N)=O)NC(=O)[C@@H](NC(=O)[C@@H](NC(=O)[C@H](CO)NC(=O)[C@H](CC(C)C)NC(=O)[C@H](C)NC(=O)[C@H](CCCNC(=N)N)NC(=O)[C@H](CCC(=O)O)NC(=O)[C@H](Cc1ccc(O)cc1)NC(=O)[C@H](Cc1ccccc1)NC(=O)[C@H](C)NC(=O)[C@H](CC(N)=O)NC(=O)[C@@H](N)CCCCN)[C@@H](C)CC)[C@@H](C)CC)[C@@H](C)O)C(C)C)C(=O)N[C@@H](CC(N)=O)C(=O)N[C@H](C(=O)O)C(C)C,CDK5 with p35,"enzyme activity, inhibitor, radiometric","10 µM, 20 min",remaining activity,86%
Cc1cc([C@@H](C)Nc2ccccc2C(=O)O)c2nc(N3CCC(F)(F)CC3)c(C#N)c(=O)n2c1,"SPHK2 (Homo sapiens, UniProt Q9NRA0)","enzyme activity, inhibitor, ADP detection",10 µM,remaining activity,107%
CCCCC(=O)Nc1ccc(-c2ccc3ncn(CCC)c(=O)c3c2)cn1,"EGFR (Homo sapiens, UniProt P00533, del752-759)","binding, competition with immobilised ligand",0.5 µM,remaining binding,100%
CC(C)(O)[C@H](NC(=O)[C@H](Cc1cscn1)NC(=O)CCc1ccccc1)C(=O)N[C@@H](CCCNC(=N)N)C(=O)c1nc2ccccc2s1,"ST14 (Homo sapiens, UniProt Q9Y5Y6)","enzyme activity, inhibitor",0.1 µM,remaining activity,82%
Nc1ncnc2occ(-c3ccc(NC(=O)Nc4cc(C(F)(F)F)ccc4F)cc3)c12,"MAP3K13 (Homo sapiens, UniProt O43283)","cell-free assay, inhibitor",20 µM,remaining signal,20%
CNc1ncc2c(/C=C/C(=O)N3CCC(OC)CC3)nn(Cc3cccc(C(F)(F)F)c3)c2n1,"FGFR3 (Homo sapiens, UniProt P22607)","enzyme activity, inhibitor, radiometric",1 µM,remaining activity,84%
O=C1OC(C(O)CO)C(=O)C1=O (stereo not drawn),CTSL,"enzyme activity, inhibitor",100 µM,remaining activity,100%
Cc1noc(NS(=O)(=O)c2ccc(N=NN(O)c3ccccc3)cc2)c1C,,ABTS scavenging,240 µg/mL,inhibition,89.9%
OCc1c[nH]c2ccccc12,CTSL,"enzyme activity, inhibitor",100 µM,remaining activity,57.1%
N=C(N)NCCC[C@H](NC(=O)[C@H](Cc1ccccc1)NC(=O)[C@H](Cc1cscn1)NC(=O)CCc1ccccc1)C(=O)c1nc2ccccc2s1,"Transmembrane protease serine 6 (Homo sapiens, UniProt Q8IU80)","enzyme activity, inhibitor",0.1 µM,remaining activity,2%
O=C(/C=C/c1ccc(O)cc1)c1ccccc1,CTSL,"enzyme activity, inhibitor",100 µM,remaining activity,48.5%
CCN(O)N=Nc1ccc(S(=O)(=O)Nc2onc(C)c2C)cc1,,ABTS scavenging,120 µg/mL,inhibition,39.1%
